Assay results pooled from the literature.
Compare with care: the assays were run in different laboratories. Several values in a cell are separate wells, animals, samples, runs or records. ± marks the error that the study gave.
lasR: Transcriptional activator protein LasR (lasR, Pseudomonas aeruginosa, UniProt P25084)
Adra1a: Alpha-1A adrenergic receptor (Adra1a, Rattus norvegicus, UniProt P43140)
Sequence of UniProt P43140 (whole entry, looked up): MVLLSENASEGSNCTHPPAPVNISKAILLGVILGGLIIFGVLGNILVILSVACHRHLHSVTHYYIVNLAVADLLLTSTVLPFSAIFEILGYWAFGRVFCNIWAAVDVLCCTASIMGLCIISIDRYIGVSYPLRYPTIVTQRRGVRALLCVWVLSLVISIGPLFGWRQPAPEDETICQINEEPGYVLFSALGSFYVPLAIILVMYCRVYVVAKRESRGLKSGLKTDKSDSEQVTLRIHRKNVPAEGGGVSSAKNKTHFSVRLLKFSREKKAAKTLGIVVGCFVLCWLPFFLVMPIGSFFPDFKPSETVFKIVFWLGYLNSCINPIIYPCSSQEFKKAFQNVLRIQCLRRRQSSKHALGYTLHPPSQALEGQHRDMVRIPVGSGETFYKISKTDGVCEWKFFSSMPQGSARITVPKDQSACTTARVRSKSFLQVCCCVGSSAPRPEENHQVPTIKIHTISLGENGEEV
Sequence of UniProt P21802 (whole entry, looked up): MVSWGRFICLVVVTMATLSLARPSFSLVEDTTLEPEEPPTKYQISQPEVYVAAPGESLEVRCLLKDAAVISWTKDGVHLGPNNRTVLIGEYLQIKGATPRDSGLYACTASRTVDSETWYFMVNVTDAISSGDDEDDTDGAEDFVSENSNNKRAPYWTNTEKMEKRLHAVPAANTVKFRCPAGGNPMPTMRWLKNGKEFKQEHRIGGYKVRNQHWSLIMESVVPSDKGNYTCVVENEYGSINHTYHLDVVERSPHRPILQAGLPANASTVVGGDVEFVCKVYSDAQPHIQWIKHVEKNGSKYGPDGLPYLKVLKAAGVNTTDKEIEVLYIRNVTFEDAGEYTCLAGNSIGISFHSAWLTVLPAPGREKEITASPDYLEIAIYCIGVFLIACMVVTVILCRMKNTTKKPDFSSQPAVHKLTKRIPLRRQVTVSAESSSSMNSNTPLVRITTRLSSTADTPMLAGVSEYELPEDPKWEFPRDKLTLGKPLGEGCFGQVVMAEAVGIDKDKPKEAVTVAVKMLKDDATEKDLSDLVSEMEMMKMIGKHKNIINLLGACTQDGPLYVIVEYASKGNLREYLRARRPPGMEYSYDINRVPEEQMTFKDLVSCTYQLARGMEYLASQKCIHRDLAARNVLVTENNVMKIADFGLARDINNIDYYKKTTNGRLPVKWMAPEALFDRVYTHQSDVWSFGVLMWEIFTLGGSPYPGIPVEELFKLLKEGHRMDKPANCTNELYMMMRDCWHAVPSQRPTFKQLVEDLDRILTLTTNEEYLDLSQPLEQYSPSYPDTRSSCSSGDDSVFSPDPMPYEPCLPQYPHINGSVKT
Sequence of UniProt P54578 (whole entry, looked up): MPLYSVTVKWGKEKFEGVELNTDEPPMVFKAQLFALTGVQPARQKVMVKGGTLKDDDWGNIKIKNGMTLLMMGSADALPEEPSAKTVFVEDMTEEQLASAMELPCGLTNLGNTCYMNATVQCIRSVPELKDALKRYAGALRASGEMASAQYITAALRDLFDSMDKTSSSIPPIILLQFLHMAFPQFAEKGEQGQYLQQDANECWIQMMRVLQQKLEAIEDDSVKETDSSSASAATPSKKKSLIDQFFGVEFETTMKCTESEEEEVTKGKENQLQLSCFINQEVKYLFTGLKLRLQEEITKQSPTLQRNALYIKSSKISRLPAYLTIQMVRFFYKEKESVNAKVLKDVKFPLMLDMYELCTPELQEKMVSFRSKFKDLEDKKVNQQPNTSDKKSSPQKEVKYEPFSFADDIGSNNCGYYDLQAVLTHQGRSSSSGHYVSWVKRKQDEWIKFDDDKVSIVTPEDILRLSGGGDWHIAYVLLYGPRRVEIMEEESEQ
Sequence of UniProt Q9UK32 (whole entry, looked up): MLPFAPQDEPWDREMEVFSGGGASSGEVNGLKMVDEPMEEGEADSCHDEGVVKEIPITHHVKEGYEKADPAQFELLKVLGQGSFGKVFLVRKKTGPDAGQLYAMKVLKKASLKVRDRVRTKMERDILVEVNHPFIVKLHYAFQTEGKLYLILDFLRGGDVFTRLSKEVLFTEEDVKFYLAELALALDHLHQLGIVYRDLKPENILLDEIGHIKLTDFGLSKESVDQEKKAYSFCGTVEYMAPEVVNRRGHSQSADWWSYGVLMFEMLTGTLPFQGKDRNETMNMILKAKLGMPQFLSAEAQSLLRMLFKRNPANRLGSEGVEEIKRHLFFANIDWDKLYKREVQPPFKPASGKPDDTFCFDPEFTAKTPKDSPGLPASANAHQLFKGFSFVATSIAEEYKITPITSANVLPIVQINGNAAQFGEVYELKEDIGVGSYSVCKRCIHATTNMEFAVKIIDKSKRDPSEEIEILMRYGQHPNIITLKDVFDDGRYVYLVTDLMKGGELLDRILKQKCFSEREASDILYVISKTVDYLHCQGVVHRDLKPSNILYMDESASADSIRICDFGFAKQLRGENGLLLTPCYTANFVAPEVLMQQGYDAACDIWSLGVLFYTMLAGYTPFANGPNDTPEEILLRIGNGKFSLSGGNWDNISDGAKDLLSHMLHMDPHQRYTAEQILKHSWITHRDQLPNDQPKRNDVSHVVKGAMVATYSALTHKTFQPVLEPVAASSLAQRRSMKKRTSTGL
Sequence of UniProt P37288 (whole entry, looked up): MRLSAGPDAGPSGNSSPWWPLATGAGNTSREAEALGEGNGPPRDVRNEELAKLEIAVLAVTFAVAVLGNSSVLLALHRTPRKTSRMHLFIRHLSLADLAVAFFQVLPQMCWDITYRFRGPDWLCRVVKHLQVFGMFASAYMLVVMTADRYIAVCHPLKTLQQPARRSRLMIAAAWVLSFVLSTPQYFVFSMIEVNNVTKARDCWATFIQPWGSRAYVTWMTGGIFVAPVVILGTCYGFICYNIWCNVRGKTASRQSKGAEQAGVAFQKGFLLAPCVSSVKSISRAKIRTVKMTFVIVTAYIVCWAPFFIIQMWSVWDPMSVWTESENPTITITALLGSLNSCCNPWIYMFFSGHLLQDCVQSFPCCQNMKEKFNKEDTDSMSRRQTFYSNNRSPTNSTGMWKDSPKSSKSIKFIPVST
Sequence of UniProt Q86U44 (whole entry, looked up): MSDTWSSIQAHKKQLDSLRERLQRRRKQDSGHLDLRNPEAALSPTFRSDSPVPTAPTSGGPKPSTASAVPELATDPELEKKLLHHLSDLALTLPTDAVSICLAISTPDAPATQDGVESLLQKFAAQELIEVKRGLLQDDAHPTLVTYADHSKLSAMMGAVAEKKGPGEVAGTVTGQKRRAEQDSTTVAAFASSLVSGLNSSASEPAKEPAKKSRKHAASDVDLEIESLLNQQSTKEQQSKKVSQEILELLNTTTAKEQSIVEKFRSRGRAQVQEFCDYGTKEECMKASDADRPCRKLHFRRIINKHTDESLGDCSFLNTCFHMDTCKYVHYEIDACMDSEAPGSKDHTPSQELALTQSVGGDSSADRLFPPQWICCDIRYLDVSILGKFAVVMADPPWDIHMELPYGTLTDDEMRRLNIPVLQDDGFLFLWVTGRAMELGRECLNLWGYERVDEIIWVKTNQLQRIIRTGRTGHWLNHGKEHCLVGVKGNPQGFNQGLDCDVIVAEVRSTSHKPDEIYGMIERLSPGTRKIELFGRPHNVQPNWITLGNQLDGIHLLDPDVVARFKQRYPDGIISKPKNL
Sequence of UniProt Q08499 (whole entry, looked up): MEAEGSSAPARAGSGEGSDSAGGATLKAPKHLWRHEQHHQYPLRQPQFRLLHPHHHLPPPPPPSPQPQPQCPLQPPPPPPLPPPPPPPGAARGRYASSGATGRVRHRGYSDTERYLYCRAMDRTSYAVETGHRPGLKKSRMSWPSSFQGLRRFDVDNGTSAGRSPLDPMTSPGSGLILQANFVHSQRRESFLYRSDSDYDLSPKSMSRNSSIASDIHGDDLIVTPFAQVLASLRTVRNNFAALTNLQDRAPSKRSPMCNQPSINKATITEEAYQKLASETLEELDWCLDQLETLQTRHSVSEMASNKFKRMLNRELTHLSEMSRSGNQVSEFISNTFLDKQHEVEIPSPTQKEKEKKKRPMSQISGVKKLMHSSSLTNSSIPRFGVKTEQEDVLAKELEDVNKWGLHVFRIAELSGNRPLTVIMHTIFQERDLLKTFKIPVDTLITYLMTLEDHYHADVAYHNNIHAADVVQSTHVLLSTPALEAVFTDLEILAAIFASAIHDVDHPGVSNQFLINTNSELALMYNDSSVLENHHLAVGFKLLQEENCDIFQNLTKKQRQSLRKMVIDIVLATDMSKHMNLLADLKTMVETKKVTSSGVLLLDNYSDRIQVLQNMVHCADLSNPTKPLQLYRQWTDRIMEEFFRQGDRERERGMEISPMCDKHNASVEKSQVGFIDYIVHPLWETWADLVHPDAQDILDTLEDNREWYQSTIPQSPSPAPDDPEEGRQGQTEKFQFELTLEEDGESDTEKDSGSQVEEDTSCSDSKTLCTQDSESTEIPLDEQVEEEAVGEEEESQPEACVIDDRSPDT
Sequence of UniProt Q13557 (whole entry, looked up): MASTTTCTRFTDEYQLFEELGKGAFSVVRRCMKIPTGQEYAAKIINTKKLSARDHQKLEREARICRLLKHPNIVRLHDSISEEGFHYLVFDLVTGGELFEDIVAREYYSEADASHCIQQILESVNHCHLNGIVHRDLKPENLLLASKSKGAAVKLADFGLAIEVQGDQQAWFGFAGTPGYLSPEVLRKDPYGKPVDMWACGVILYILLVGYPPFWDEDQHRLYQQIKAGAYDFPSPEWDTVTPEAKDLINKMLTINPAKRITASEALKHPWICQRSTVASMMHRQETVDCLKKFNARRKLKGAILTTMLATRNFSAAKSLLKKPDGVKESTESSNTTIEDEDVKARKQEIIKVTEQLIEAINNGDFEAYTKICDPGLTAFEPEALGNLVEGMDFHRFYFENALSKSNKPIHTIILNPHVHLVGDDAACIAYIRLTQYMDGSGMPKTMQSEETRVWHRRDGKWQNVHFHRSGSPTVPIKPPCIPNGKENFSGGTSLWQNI
Sequence of UniProt O60895 (whole entry, looked up): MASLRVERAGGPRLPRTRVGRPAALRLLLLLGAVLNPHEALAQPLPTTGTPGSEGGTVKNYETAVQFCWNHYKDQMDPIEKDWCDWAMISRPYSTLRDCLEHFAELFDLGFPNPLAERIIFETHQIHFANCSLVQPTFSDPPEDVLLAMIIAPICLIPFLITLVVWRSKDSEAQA

| Compound | target | assay | system | setting | inhibition |
| --- | --- | --- | --- | --- | --- |
| C=CC(=O)Nc1cc(-c2nn(C3CCC(N4CCN(C(C)=O)CC4)CC3)c3ncnc(N)c23)ccc1Oc1ccccc1 (stereo not shown) | Calcium/calmodulin-dependent protein kinase type II subunit delta (CAMK2D, Homo sapiens, UniProt Q13557) | inhibitor, KiNativ profiling | biochemical | 2 µM | -7.6% |
| CN(C)[C@H]1C[C@@]23CC[C@@]4(O2)C(=CC[C@]2(C)[C@@H](c5ccc6ccncc6c5)CC[C@H]24)C=C3[C@@H](O)[C@@H]1O | Aurora kinase B (AURKB, Homo sapiens, UniProt Q96GD4) | ATP probe labelling, inhibitor, KiNativ profiling | – | 0.1 µM | 5% |
| O=C(Nc1nccs1)c1c(O)c2c(n(Cc3ccccc3)c1=O)CCCC2 | Uncharacterized protein (Trypanosoma brucei brucei, UniProt Q386Q8) | enzyme activity, inhibitor, coupled colorimetric | – | 30 µM, with: E. coli pyrophosphatase coupling | 24.5% |
| CCCCC1(C2CCCC2)Cc2cc(OCCCC(=O)O)c(Cl)c(Cl)c2C1=O (stereo not shown) | LRRC8A (Homo sapiens, UniProt Q8IWT6) | ion current, inhibitor | HEK293 | 10 µM, with: hypotonic stimulation | 90.3 ± 2% |
| O=C(CC(=O)N[C@H]1CCOC1=O)Cc1ccccc1 | lasR | reporter gene, antagonist | Pseudomonas aeruginosa PAO-JP2 | 100 µM, plasI-LVAgfp reporter, with: OdDHL 150 nM | 39% |
| CS(C)(=O)=Nc1ccc(-c2ccc(-c3nc4cc(O[C@@H]5CO[C@H]6[C@@H]5OC[C@H]6O)[nH]c4cc3F)cc2)cc1 | Testis-specific serine/threonine-protein kinase 2 (TSSK2, Homo sapiens, UniProt Q96PF2) | enzyme activity, inhibitor | – | 10 µM | 12% |
| O=C(O)c1ccccc1/C=N/Nc1nc(-c2ccccc2Cl)cs1 | TGF-beta receptor type-2 (TGFBR2, Homo sapiens, UniProt P37173) | enzyme activity, inhibitor | – | 1 µM | -1.73% |
| CCCCCCCCCC(=O)CC(=O)NC1CCCCC1=O (stereo not shown) | lasR | reporter gene, antagonist | Pseudomonas aeruginosa PAO-JP2 | 100 µM, plasI-LVAgfp reporter, with: OdDHL 150 nM | 32% |
| C[C@H](NCc1ccc(-c2ccc(C(F)(F)F)cc2)cc1)C(N)=O | Adra1a | radioligand binding, SafetyScreen panel | – | 1 µM, species rat, with: 0.25 nM [3H]Prazosin | 5% |
| CCCCCCCCCNC(=O)CC(=O)c1ccccc1 | lasR | reporter gene, antagonist | Pseudomonas aeruginosa PAO-JP2 | 100 µM, plasI-LVAgfp reporter, with: OdDHL 150 nM | 83% |
| C=C[C@@H]1C[C@]1(NC(=O)[C@@H]1C[C@@H]2CN1C(=O)[C@H](C(C)(C)C)NC(=O)O[C@@H]1C[C@H]1CCCCCc1nc3ccc(OC)cc3nc1O2)C(=O)NS(=O)(=O)C1CC1 | Ribosomal processing cysteine protease Prp (prp, Staphylococcus aureus, UniProt Q2FXS9, N63Q) | enzyme activity, inhibitor | – | 10 µM, prp 21.4 nM, with: FITC peptide substrate 0.5 µM | -8.3 ± 14.2% |
| O=C(CN1CN(c2ccccc2)C2(CCN(C(=O)c3cnc4[nH]ncc4c3)CC2)C1=O)NCC(F)(F)F | Ribosomal protein S6 kinase alpha-6, N-terminal kinase domain (RPS6KA6, Homo sapiens, UniProt Q9UK32) | inhibitor | – | concentration not given | < 50% |
| O=C(CCCOc1cccc(Br)c1)N[C@H]1CCSC1=O | lasR | reporter gene, antagonist | Pseudomonas aeruginosa PAO-JP2 | 100 µM, plasI-LVAgfp reporter, with: OdDHL 150 nM | -85% |
| CN(/N=C/c1ccccc1C(=O)O)c1nc(-c2ccccc2Cl)cs1 | Fibroblast growth factor receptor 2 (FGFR2, Homo sapiens, UniProt P21802) | kinase activity | – | 1 µM | 1.05% |
| CCCCCCC(=O)N[C@H]1CCOC1=O | lasR | reporter gene, antagonist | Escherichia coli JLD271 | 10 µM, pSC11 and pJN105L plasmids, with: OdDHL 2 nM | 54% |
| N[C@H](C(=O)N1CCCC1)C1CCN(c2nccc3c(-c4ncc(Cl)cc4Cl)cccc23)CC1 | Protein-arginine deiminase type-2 (PADI2, Homo sapiens, UniProt Q9Y2J8) | enzyme activity, GDH-coupled | – | 24 µM, with: 0.25 mM Ca2+ (low) | 99.9% |
| CN[C@@H]1[C@H](O)[C@H](NC)[C@H]2O[C@]3(O)[C@H](O[C@@H]2[C@H]1O)O[C@H](C)C[C@H]3NC(=O)Cc1cc(Cl)ccn1 | Adra1a | ligand displacement, radioligand | – | 10 µM | 12% |
| CC(=O)NC[C@@H]1C[C@@H](O)[C@H]2[C@H](O)C[C@@H](CO)N12 | β-N-acetylglucosaminidase | enzyme activity, inhibitor, colorimetric | Canavalia ensiformis | 37.5 nM, with: p-nitrophenyl GlcNAc substrate | 22.1% and 16.2% |
| CC1(C)OB(c2cnc3c(c2)CC(=O)N3)OC1(C)C | Uncharacterized hydrolase SAUSA300_2518 (Staphylococcus aureus, UniProt Q2FDS6) | enzyme activity, inhibitor | – | 50 µM | 53.2% |
| CC(C)[C@H]1NC(=O)C[C@H]2/C=C/CCSSC[C@@H](NC1=O)C(=O)N[C@H](Cc1cccc3ccccc13)C(=O)NCC(=O)O2 | Dual specificity mitogen-activated protein kinase kinase 7 (MAP2K7, Homo sapiens, UniProt O14733) | – | – | 10 µM | 2.3% |
| CCCCCCCCCCCCCCCCCC(=O)NC[C@H]1CC[C@H](C(=O)N[C@@H](CCC(=O)NCCCOCCOCCOCCCNC(=O)COCC(=O)N[C@@H](Cc2ccc(O)cc2)C(=O)NC(C)(Cc2ccccc2)C(=O)N[C@@H](CC(C)C)C(=O)N[C@@H](CCCC)C(=O)N[C@@H](CCCNC(=N)N)C(=O)N2CCC[C@H]2C(=O)N[C@@H](CCCNC(=N)NC)C(=O)N[C@@H](CC(N)=O)C(N)=O)C(=O)O)CC1 (stereo partly shown) | Amylin receptor AMY2; CALCR/RAMP2 (Homo sapiens, UniProt O60895+P30988) | antagonist, DiscoverX GPCR panel | – | 1 µM | 72% |
| Cn1c(=O)[nH]c2nncnc2c1=O | Ubiquitin carboxyl-terminal hydrolase 14 (USP14, Homo sapiens, UniProt P54578) | enzyme activity, inhibitor | – | 17 µM | 92% |
| CCC1CC(c2ccc(C(=O)O)cc2C)=NN1c1ccc(C#N)c(Cl)c1 (stereo not shown) | N6-adenosine-methyltransferase catalytic subunit, with METTL14 (METTL3, Homo sapiens, UniProt Q86U44) | enzyme activity | – | 10 µM | 0% |
| COc1c(/C=C/C(=O)c2ccc(O)cc2)ccc(O)c1O | 3',5'-cyclic-AMP phosphodiesterase 4D (PDE4D, Homo sapiens, UniProt Q08499) | enzyme activity, inhibitor, radiometric | – | 5 µM | 50.4% |
| CCc1nnc(-c2c(OC)cc(-c3cnc4cc(-c5cnn(C)c5)ccn34)cc2OC)o1 | Vasopressin V1a receptor (AVPR1A, Homo sapiens, UniProt P37288) | agonist radioligand, radioligand binding | – | 10 µM, SafetyScreen44 V1a | 3% |

Some of these lines once more:
| Compound | target | assay | system | setting | inhibition |
| --- | --- | --- | --- | --- | --- |
| CN(C)[C@H]1C[C@@]23CC[C@@]4(O2)C(=CC[C@]2(C)[C@@H](c5ccc6ccncc6c5)CC[C@H]24)C=C3[C@@H](O)[C@@H]1O | Aurora kinase B (AURKB, Homo sapiens, UniProt Q96GD4) | ATP probe labelling, inhibitor, KiNativ profiling | – | 0.1 µM | 5% |
| CCCCCCCCCCCCCCCCCC(=O)NC[C@H]1CC[C@H](C(=O)N[C@@H](CCC(=O)NCCCOCCOCCOCCCNC(=O)COCC(=O)N[C@@H](Cc2ccc(O)cc2)C(=O)NC(C)(Cc2ccccc2)C(=O)N[C@@H](CC(C)C)C(=O)N[C@@H](CCCC)C(=O)N[C@@H](CCCNC(=N)N)C(=O)N2CCC[C@H]2C(=O)N[C@@H](CCCNC(=N)NC)C(=O)N[C@@H](CC(N)=O)C(N)=O)C(=O)O)CC1 (stereo partly shown) | Amylin receptor AMY2; CALCR/RAMP2 (Homo sapiens, UniProt O60895+P30988) | antagonist, DiscoverX GPCR panel | – | 1 µM | 72% |
| CCCCCCC(=O)N[C@H]1CCOC1=O | lasR | reporter gene, antagonist | Escherichia coli JLD271 | 10 µM, pSC11 and pJN105L plasmids, with: OdDHL 2 nM | 54% |
